Results gathered from unrelated publications.
Lines come from different studies, so protocols differ. Numbers after ± are the reported error.

CO[C@@H]1[C@H](O)[C@@H](CO)O[C@H]1n1cnc2c(=O)[nH]c(N)nc21
pKa (UV absorption; water; 25 °C, N1 deprotonation): 9.5

OCCN1CCN(CCCN2c3ccccc3Sc3ccc(C(F)(F)F)cc32)CC1
pKa: 4.55

O=c1cc(-c2ccc(O)c(-c3c(O)cc(O)c4c(=O)cc(-c5ccc(O)cc5)oc34)c2)oc2cc(O)cc(O)c12
pKa (UV-vis pH titration; ethanol-water, 0.1 M NaCl; 25 µM, 25 °C, fourth pKa, phenol deprotonation): 8.71

O=C(NOC(=O)C(O)Cc1ccccc1)OCc1ccccc1 (centres unmarked)
pKa (spectrophotometric titration; 25 °C, acidic NH): 7.6

COc1c(N2CCNC(C)C2)c(F)cc2c(=O)c(C(=O)O)cn(C3CC3)c12 (centres unmarked)
pKa (pH titration; 25 °C, aliphatic secondary amine): 9.21

O=C(O)COP(=O)(O)O
pKa: 6.3

CCOC(=O)CNc1ccc2ccccc2c1
pKa (spectrophotometric titration, item: secondary amine; aqueous NaCl with buffer; 10 µM): ~4.7

N#Cc1ccc(C[C@H](N)C(=O)NCC(=O)NCC(N)=O)cc1
pKa (N-terminal amino group, fluorescence pH titration; water; 20 µM, 25 °C, two-state fit): 6.97

CC1=CC(c2ccccc2)=NS(=O)(=O)N1
pKa (polymer-water distribution, UV; 25 °C): 2.52 ± 0.17

N#Cc1ccc(C[C@H](NC(=O)[C@@H](N)CCCCN)C(=O)NCC(N)=O)cc1
pKa (N-terminal amino group, fluorescence pH titration; water; 20 µM, 25 °C, two-state fit): 7.25

O=c1[nH]c(=O)c2nsc([C@@H]3O[C@H](CO)[C@@H](O)[C@H]3O)c2[nH]1
pKa (fluorescence emission vs pH): 8.94

C[C@H](N)C(=O)N[C@@H](Cc1ccc(C#N)cc1)C(=O)NCC(N)=O
pKa (N-terminal amino group, fluorescence pH titration; water; 20 µM, 25 °C, two-state fit): 7.99

CN1CCN2c3ncccc3Cc3ccccc3C2C1 (centres unmarked)
pKa: 4.21

N#Cc1ccc(C[C@H](NC(=O)[C@@H]2CCCN2)C(=O)NCC(N)=O)cc1
pKa (N-terminal amino group, fluorescence pH titration; water; 20 µM, 25 °C, two-state fit): 7.28

NC(Cc1cc(=O)oc2cc(O)ccc12)C(=O)O (centres unmarked)
pKa (pH-dependent fluorescence): 7.8

CSCC[C@H](N)C(=O)N[C@@H](Cc1ccc(C#N)cc1)C(=O)NCC(N)=O
pKa (N-terminal amino group, fluorescence pH titration; water; 20 µM, 25 °C, two-state fit): 7.04

Nc1ncnc2c([C@@H]3O[C@H](CO)[C@@H](O)[C@H]3O)snc12
pKa (fluorescence emission vs pH): 3.29

Excerpt of the above:
CO[C@@H]1[C@H](O)[C@@H](CO)O[C@H]1n1cnc2c(=O)[nH]c(N)nc21
pKa (UV absorption; water; 25 °C, N1 deprotonation): 9.5

NC(Cc1cc(=O)oc2cc(O)ccc12)C(=O)O (centres unmarked)
pKa (pH-dependent fluorescence): 7.8
